Experimental data from different studies.
Protocols differ between the studies behind these lines. Numbers after ± are the reported error.
Beta-lactamase CTX-M-14: Beta-lactamase CTX-M-14 (Escherichia coli, UniProt Q9L5C7)
ALB: Albumin (ALB, Bos taurus, UniProt P02769)
Sequence of UniProt P02769 (whole entry, looked up): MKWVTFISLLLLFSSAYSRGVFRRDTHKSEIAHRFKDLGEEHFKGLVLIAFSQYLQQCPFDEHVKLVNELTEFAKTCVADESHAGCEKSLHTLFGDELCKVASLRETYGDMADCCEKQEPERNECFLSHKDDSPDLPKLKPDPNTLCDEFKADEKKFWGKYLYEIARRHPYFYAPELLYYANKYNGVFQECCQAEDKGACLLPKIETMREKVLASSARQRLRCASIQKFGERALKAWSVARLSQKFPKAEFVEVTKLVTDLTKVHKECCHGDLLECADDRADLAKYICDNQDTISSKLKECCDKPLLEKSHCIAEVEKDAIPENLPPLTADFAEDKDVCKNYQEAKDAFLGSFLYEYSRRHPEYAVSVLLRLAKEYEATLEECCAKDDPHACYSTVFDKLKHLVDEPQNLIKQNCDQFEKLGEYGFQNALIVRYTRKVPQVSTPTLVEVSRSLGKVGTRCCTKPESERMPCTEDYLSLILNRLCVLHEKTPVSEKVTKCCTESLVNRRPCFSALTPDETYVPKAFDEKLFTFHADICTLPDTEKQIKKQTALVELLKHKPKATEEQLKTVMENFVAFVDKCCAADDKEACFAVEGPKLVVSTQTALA
PHD finger protein 1 W41A Tudor domain W41A: PHD finger protein 1, Tudor domain W41A (Homo sapiens, UniProt O43189, W41A)
Sequence of UniProt O43189 (whole entry, unmodified, looked up): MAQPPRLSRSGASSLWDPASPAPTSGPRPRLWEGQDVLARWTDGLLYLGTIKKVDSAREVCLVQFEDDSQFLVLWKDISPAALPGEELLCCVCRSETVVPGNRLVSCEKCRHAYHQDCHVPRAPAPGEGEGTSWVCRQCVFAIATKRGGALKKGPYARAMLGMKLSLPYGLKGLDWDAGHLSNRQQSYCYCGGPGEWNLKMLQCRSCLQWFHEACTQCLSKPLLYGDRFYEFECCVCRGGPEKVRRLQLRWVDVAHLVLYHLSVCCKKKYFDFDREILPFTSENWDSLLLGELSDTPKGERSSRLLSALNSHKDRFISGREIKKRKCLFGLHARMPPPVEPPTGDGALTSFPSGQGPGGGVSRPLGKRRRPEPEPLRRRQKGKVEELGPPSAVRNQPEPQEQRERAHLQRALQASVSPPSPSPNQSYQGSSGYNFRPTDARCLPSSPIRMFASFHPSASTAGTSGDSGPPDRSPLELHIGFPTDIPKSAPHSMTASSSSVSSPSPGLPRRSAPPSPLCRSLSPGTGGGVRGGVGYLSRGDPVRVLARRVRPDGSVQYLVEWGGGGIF
Sequence of UniProt P14625 (whole entry, looked up): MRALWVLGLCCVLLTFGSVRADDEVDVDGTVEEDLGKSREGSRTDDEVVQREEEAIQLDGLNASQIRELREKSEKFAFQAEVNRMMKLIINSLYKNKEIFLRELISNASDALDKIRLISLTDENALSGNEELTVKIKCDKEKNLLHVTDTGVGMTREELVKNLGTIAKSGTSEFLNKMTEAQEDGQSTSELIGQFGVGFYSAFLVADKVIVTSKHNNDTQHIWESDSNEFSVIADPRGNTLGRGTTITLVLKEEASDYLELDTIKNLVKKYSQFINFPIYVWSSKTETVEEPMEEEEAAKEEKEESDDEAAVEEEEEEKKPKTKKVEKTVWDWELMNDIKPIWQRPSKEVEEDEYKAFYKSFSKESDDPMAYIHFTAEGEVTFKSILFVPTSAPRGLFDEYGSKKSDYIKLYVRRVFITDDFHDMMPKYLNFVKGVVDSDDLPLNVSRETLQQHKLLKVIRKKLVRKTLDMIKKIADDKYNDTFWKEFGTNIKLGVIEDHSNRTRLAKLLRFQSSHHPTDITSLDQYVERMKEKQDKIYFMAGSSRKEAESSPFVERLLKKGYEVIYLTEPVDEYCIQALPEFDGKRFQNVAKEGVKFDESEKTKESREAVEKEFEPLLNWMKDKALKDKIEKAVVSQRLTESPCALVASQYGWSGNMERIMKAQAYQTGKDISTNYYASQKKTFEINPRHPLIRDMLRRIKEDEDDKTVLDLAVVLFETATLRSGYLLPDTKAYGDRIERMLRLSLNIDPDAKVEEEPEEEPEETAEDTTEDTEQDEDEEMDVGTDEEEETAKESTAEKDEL
Sequence of UniProt P53341 (whole entry, looked up): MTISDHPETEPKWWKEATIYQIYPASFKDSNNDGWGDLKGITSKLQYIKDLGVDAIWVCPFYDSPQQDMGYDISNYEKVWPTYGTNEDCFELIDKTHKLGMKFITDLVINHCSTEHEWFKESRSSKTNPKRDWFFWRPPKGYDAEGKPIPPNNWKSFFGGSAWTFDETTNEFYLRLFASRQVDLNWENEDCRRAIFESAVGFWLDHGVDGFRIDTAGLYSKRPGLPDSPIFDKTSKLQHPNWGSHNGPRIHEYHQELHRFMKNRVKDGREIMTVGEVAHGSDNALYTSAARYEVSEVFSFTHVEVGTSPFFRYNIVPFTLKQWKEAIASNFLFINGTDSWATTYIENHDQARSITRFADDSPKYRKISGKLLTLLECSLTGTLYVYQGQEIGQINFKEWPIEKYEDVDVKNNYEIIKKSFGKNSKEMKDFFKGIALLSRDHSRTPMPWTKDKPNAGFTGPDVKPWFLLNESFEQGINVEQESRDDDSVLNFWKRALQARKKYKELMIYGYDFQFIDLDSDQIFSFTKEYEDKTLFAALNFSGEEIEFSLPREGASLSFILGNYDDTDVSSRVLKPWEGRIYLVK
Sequence of UniProt P30041 (whole entry, looked up): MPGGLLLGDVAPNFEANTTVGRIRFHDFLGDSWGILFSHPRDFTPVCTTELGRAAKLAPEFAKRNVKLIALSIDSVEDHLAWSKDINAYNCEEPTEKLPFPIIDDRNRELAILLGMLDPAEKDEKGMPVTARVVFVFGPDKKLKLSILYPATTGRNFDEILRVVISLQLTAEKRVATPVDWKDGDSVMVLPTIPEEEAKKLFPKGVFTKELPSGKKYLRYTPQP
Sequence of UniProt P04040 (whole entry, looked up): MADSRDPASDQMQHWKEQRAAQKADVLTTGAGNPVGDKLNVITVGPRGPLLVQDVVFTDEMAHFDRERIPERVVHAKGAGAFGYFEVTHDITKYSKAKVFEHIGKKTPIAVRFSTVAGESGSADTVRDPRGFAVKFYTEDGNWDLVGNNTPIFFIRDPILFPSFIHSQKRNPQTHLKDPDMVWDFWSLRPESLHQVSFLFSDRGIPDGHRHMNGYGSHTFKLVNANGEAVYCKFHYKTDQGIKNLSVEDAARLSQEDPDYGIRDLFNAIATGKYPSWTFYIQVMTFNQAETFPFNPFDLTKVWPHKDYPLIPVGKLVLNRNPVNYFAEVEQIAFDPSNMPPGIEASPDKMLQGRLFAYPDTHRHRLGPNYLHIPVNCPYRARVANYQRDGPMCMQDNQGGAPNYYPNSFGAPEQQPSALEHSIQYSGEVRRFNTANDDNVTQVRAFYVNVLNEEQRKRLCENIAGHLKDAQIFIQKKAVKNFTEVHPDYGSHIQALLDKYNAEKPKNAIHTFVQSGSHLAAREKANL
Sequence of UniProt P18507 (whole entry, looked up): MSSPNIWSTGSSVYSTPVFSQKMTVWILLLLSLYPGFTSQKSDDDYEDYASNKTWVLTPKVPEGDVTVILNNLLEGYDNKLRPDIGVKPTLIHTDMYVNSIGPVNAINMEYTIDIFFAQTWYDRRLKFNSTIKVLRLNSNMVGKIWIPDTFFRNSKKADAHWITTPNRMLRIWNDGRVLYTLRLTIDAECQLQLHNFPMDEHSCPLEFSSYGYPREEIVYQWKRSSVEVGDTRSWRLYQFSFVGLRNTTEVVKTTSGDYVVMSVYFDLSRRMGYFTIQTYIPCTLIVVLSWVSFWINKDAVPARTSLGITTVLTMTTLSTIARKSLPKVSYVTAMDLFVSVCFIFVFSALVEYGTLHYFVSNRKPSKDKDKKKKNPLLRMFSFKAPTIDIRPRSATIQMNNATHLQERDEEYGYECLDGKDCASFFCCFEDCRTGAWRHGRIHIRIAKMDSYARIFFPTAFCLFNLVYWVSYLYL
Sequence of UniProt P14867 (whole entry, looked up): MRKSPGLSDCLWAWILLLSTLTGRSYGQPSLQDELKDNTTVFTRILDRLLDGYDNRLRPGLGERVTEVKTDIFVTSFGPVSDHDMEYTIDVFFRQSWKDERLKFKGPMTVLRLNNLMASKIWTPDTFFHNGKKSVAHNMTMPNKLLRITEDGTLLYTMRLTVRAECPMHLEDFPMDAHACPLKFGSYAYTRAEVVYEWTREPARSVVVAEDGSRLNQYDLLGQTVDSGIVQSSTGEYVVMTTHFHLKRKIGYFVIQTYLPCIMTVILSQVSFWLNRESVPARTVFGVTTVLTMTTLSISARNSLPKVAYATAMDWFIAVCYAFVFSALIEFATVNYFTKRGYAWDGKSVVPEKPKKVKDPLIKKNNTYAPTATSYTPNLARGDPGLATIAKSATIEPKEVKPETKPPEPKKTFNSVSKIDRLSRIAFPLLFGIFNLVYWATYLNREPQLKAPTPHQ
Sequence of UniProt Q13148 (whole entry, looked up): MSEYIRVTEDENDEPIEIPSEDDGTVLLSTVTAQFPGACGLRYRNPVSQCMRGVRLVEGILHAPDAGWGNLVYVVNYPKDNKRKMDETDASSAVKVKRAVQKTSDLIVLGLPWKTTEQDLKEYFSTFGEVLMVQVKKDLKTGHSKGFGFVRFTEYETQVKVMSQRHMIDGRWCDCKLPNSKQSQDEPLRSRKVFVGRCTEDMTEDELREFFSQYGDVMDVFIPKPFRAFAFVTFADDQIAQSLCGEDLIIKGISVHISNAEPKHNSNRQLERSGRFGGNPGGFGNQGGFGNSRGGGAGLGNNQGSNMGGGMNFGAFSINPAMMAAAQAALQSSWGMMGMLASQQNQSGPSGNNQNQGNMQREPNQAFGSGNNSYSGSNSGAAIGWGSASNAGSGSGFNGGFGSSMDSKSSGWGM
Sequence of UniProt P05852 (whole entry, looked up): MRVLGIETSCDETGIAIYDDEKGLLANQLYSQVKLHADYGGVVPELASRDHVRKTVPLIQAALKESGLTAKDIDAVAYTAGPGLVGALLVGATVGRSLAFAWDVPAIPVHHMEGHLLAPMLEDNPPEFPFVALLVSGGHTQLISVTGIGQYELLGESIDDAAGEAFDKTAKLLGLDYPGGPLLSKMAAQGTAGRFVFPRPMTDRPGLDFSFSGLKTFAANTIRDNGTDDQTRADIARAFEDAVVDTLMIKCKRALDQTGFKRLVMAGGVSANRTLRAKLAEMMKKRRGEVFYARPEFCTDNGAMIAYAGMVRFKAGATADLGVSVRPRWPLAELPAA

Compound | target | assay | test system | setting | Kd
O=C(Nc1cccc(-c2nn[nH]n2)c1)c1cc(-c2nn[nH]n2)cc(C(F)(F)F)c1 | Beta-lactamase CTX-M-14 | surface plasmon resonance |  | 25 °C | 11.9 ± 0.1 µM
CN(C)c1ccc(/N=N/c2ccc(S(=O)(=O)O)cc2)cc1 | ALB | binding |  | pH 7.5 | 447 µM
CC1(C)CC(=O)C2=C(C1)Oc1ncnc(Nc3ccc([N+](=O)[O-])cc3)c1C2c1ccccc1F (centres unmarked) | ALB | absorption titration |  | pH 7.2, 25 °C | 6.1 µM
O=C(Nc1cccc(-c2nn[nH]n2)c1)c1cc(-c2ncccn2)cc(C(F)(F)F)c1 | Beta-lactamase CTX-M-14 | surface plasmon resonance |  | 25 °C | 4.07 ± 0.04 µM
CC(=O)NCCN(CC(=O)NCCN(CC(=O)NCCN(CC(=O)NCCC(N)=O)C(=O)C[C@@H](N)Cc1ccccc1)C(=O)C[C@@H](N)Cc1ccccc1)C(=O)C[C@@H](N)CCCNC(=N)N | HIV-1 TAR RNA (18-44) | fluorescence |  | 25 °C, with: 100-fold excess 15-mer duplex DNA | 0.3 ± 0.05 µM
CCCCCCCCCCCC(=O)Nc1ccccc1SSc1ccccc1NC(=O)CCCCCCCCCCC | ALB | binding, fluorescence quenching |  | pH 7.4, 313 K | 358 µM
O=C1c2sc(-c3ccc(N4CCC(F)C4)nc3F)nc2CCN1c1cccnc1 (centres unmarked) | TAR DNA-binding protein 43, aggregated (TARDBP, Homo sapiens, UniProt Q13148) | saturation autoradiography | FTLD-TDP type A brain sections |  | 0.025 ± 0.025 µM
CCCCCCCC(=O)N[C@@H](CCN)C(=O)N[C@H](C(=O)N[C@@H](CCN)C(=O)N[C@H]1CCNC(=O)[C@H]([C@@H](C)O)NC(=O)[C@H]([C@@H](C)O)NC(=O)[C@H](CCN)NC(=O)[C@H](CC(C)C)NC(=O)[C@@H](Cc2ccccc2)NC(=O)[C@H](CCN)NC1=O)[C@@H](C)O | anti-polymyxin B mouse IgM mAb | SPR |  | 25 °C | > 25 µM
C=C1C(=O)O[C@@H]2[C@H]3C(CO)=CC(=O)C3=C(C)C[C@H](O)[C@@H]12 | Alpha-glucosidase MAL12 (MAL12, Saccharomyces cerevisiae S288c, UniProt P53341) | binding, fluorescence quenching |  | 30 min, 298 K | 166 µM
CC(=O)NCCN(CCC(=O)NCCN(CCC(=O)NCCN(CCC(=O)NCCC(N)=O)C(=O)[C@@H](N)CCCNC(=N)N)C(=O)[C@@H](N)CCCNC(=N)N)C(=O)[C@@H](N)Cc1ccccc1 | HIV-1 TAR RNA (18-44) | fluorescence |  | 25 °C, with: 100-fold excess 15-mer duplex DNA | 0.6 ± 0.15 µM
CC(C)[C@H](NC(=O)CNC(=O)CNC(=O)[C@@H](NC(=O)[C@H](C)NC(=O)[C@@H]1CCCN1C(=O)[C@H](C)NC(=O)[C@@H](N)CO)[C@@H](C)O)C(=O)N[C@@H](CCCC[N+](C)(C)C)C(=O)N[C@@H](CCCCN)C(=O)N1CCC[C@H]1C(=O)N[C@@H](Cc1c[nH]cn1)C(=O)N[C@@H](CCCNC(=N)N)C(=O)N[C@@H](Cc1ccc(O)cc1)C(=O)N[C@@H](CCCNC(=N)N)C(=O)N1CCC[C@H]1C(=O)O | PHD finger protein 1 W41A Tudor domain W41A | binding, isothermal titration calorimetry |  | with: histone H3 peptide | 30.1 ± 10.9 µM
CC(=O)NCCN(CC(=O)NCCN(CC(=O)NCCN(CC(=O)NCCC(N)=O)C(=O)C[C@@H](N)CCCNC(=N)N)C(=O)C[C@@H](N)CCCCN)C(=O)C[C@@H](N)Cc1ccccc1 | HIV-1 TAR RNA (18-44) | fluorescence |  | 25 °C, with: 100-fold excess natural tRNA | 0.7 ± 0.15 µM
O=P(O)(O)O[C@@H]1[C@@H](O)[C@@H](O[C@@H]2COC[C@@H]2OP(=O)(O)O)O[C@H](CO)[C@H]1OP(=O)(O)O | Inositol 1,4,5-trisphosphate-gated calcium channel ITPR1, N-terminal region (Itpr1, Rattus norvegicus, UniProt P29994, del318-332/R504Q) | [3H]IP3 competition binding |  | N-terminal fragment R504Q | 0.0525 µM
C[C@@H](O)[C@H](NC(=O)CP(=O)(O)OC[C@H]1O[C@@H](n2cnc3c(N)ncnc32)[C@H](O)[C@@H]1O)C(=O)O | tsaD, with TsaB (Escherichia coli, UniProt P05852) | microscale thermophoresis |  | with: 0.5 µM unlabelled TsaB | 3.4 µM
CC(C)CCC[C@@H](C)[C@H]1CC[C@H]2[C@@H]3CC=C4C[C@@H](OS(=O)(=O)O)CC[C@]4(C)[C@H]3CC[C@]12C | Prothrombin (F2, Homo sapiens, UniProt P00734) | binding, intrinsic fluorescence titration |  | pH 7.4, 25 °C | 181 ± 18.9 µM
CC(=O)NCCN(CCC(=O)NCCN(CCC(=O)NCCN(CCC(=O)NCCC(N)=O)C(=O)[C@@H](N)Cc1ccccc1)C(=O)[C@@H](N)CCCNC(=N)N)C(=O)[C@@H](N)Cc1ccccc1 | HIV-1 TAR RNA (18-44) | fluorescence |  | 25 °C, with: 100-fold excess natural tRNA | 1.7 ± 0.44 µM

Compound | target | assay | test system | setting | Kd
CC(C)C[C@H](NC(=O)[C@@H]1CCCN1C(=O)[C@H](CCCCN)NC(=O)[C@H](CCCCN(CCc1ccccc1)C(C)C)NC(=O)[C@@H](NC(=O)CNC(=O)CN)C(C)C)C(=O)N[C@@H](CCCNC(=N)N)C(N)=O | PHD finger protein 1 W41A Tudor domain W41A | binding, isothermal titration calorimetry |  | Tudor domain | 4.9 ± 0.6 µM
N=c1ccc(-c2ccc(OCc3ccc(CCCNC(=O)c4ccc(-c5c6cc(F)c(=O)cc-6oc6cc(O)c(F)cc56)c(C(=O)O)c4)cc3)cc2)nn1CCCC(=O)O | GABA-A receptor; alpha-1/beta-3/gamma-2 (Homo sapiens, UniProt P14867+P18507+P28472) | binding, confocal imaging | HEK293T cells, live |  | 0.0549 µM
CCCCCCCCCCCCCCCC(=O)Nc1ccccc1SSc1ccccc1NC(=O)CCCCCCCCCCCCCCC | ALB | binding, fluorescence quenching, no site marker |  | pH 7.4, 298 K | 5.59 µM
CCCCCCCC(=O)N[C@@H](CCN)C(=O)N[C@H](C(=O)N[C@@H](CCN)C(=O)N[C@H]1CCNC(=O)[C@H]([C@@H](C)O)NC(=O)[C@H](CCN)NC(=O)[C@H](CCN)NC(=O)[C@H](CC(C)C)NC(=O)[C@@H](Cc2ccccc2)NC(=O)[C@H](C)NC1=O)[C@@H](C)O | anti-polymyxin B mouse IgM mAb | SPR |  | 25 °C | > 25 µM
CCN(CC)c1ccc(C=NNC(N)=S)cc1Br | Catalase (CAT, Homo sapiens, UniProt P04040) | binding |  |  | 31.4 µM
C=CCNC1=C2C[C@@H](C)C[C@H](OC)[C@H](O)[C@@H](C)[C@@H]3O[C@@]3(C)[C@H](OC(N)=O)[C@@H](OC)/C=C\C=C(/C)C(=O)NC(=CC1=O)C2=O | Endoplasmin (HSP90B1, Homo sapiens, UniProt P14625) | ligand displacement, FP |  |  | > 10 µM
CC(=O)O[C@H]1C=C([C@H](C)[C@H]2CC(C)=C(C)C(=O)O2)[C@@]2(C)CC[C@H]3[C@@H](C[C@H]4O[C@]45[C@@H](O)C=CC(=O)[C@]35C)[C@]12O | Peroxiredoxin-6 (PRDX6, Homo sapiens, UniProt P30041) | binding, BLI |  |  | 7.51 µM
O=C(Nc1cccc(-c2nn[nH]n2)c1)c1cc(-n2cnnn2)cc(C(F)(F)F)c1 | Beta-lactamase CTX-M-14 | surface plasmon resonance |  | 25 °C | 29.8 ± 1.2 µM
CC(=O)NCCN(CC(=O)NCCN(CC(=O)NCCN(CC(=O)NCCC(N)=O)C(=O)C[C@@H](N)Cc1ccccc1)C(=O)C[C@@H](N)CCCNC(=N)N)C(=O)C[C@@H](N)CCCNC(=N)N | HIV-1 TAR RNA (18-44) | fluorescence |  | 25 °C, with: 100-fold excess natural tRNA | 0.5 ± 0.1 µM
CCCCCCCC(=O)N[C@@H](CCN)C(=O)N[C@H](C(=O)N[C@@H](CCN)C(=O)N[C@H]1CCNC(=O)[C@H]([C@@H](C)O)NC(=O)[C@H](C)NC(=O)[C@H](CCN)NC(=O)[C@H](CC(C)C)NC(=O)[C@@H](Cc2ccccc2)NC(=O)[C@H](CCN)NC1=O)[C@@H](C)O | anti-polymyxin B mouse IgM mAb | SPR |  | 25 °C | > 25 µM
CC(=O)NCCN(CC(=O)NCCN(CC(=O)NCCN(CC(=O)NCCC(N)=O)C(=O)C[C@@H](N)CCCNC(=N)N)C(=O)C[C@@H](N)Cc1ccccc1)C(=O)C[C@@H](N)Cc1ccccc1 | HIV-1 TAR RNA (18-44) | fluorescence |  | 25 °C, with: 100-fold excess natural tRNA | 0.26 ± 0.12 µM
C=CC(=O)N1C[C@H](C)N(c2nc(OC[C@@]34CCCN3C[C@H](F)C4)nc3c(F)c(-c4ccc(F)c5sc(N)c(C#N)c45)c(C(F)(F)F)cc23)C[C@H]1C | Homeodomain-interacting protein kinase 1 (HIPK1, Homo sapiens, UniProt Q86Z02) | binding, competition with immobilised ligand |  |  | 10 µM
CO[C@@H]1O[C@H](CO)[C@@H](O[C@H]2O[C@H](CO)[C@@H](OP(=O)(O)O)[C@H](OP(=O)(O)O)[C@H]2O)[C@H]1OP(=O)(O)O | Inositol 1,4,5-trisphosphate-gated calcium channel ITPR1, N-terminal region (Itpr1, Rattus norvegicus, UniProt P29994, del318-332) | [3H]IP3 competition binding |  | N-terminal fragment | 0.00192 µM
NS(=O)(=O)c1cc(C(=O)NCCCC(=O)O)c(NC2CCCCC2)cc1Cl | Carbonic anhydrase 12 (CA12, Homo sapiens, UniProt O43570) | binding, ITC |  |  | ≤ 0.012 µM
N#C[C@@H]1CC(F)(F)CN1C(=O)CNC(=O)c1ccnc2ccc(OCCOCCNC(=O)CN3CCN(CC(=O)O)CCN(CC(=O)O)CC3)cc12 | Prolyl endopeptidase FAP (FAP, Homo sapiens, UniProt Q12884) | binding, SPR |  |  | 7.3e-05 µM
CCCCCCCCCCCCCC(=O)Nc1ccccc1SSc1ccccc1NC(=O)CCCCCCCCCCCCC | ALB | binding, fluorescence quenching |  | pH 7.4, 308 K | 8.77 µM

Some of these lines once more:
Compound | target | assay | test system | setting | Kd
N#C[C@@H]1CC(F)(F)CN1C(=O)CNC(=O)c1ccnc2ccc(OCCOCCNC(=O)CN3CCN(CC(=O)O)CCN(CC(=O)O)CC3)cc12 | Prolyl endopeptidase FAP (FAP, Homo sapiens, UniProt Q12884) | binding, SPR |  |  | 7.3e-05 µM
CC1(C)CC(=O)C2=C(C1)Oc1ncnc(Nc3ccc([N+](=O)[O-])cc3)c1C2c1ccccc1F (centres unmarked) | ALB | absorption titration |  | pH 7.2, 25 °C | 6.1 µM
CC(=O)NCCN(CC(=O)NCCN(CC(=O)NCCN(CC(=O)NCCC(N)=O)C(=O)C[C@@H](N)CCCNC(=N)N)C(=O)C[C@@H](N)CCCCN)C(=O)C[C@@H](N)Cc1ccccc1 | HIV-1 TAR RNA (18-44) | fluorescence |  | 25 °C, with: 100-fold excess natural tRNA | 0.7 ± 0.15 µM
